Experimental data gathered from unrelated publications.
Protocols differ between the studies behind these lines. “And” joins repeats or separate records; there may be more than shown. ± gives the spread as reported. Values after ≈ are worked out from the molar mass of the structure shown.

SMILES	test	system	conditions	scale	quantity	result
CN1C(=O)[C@@H](NC(=O)c2nnc(Cc3ccccc3)[nH]2)COc2cccnc21	phase I single ascending dose	human, male and female	oral, 10 mg, fasted	–	medical device site reaction incidence	16.7%
Cc1ccc([C@@H]2O[C@H](CO)[C@@H](O)[C@H](O)[C@H]2O)cc1Cc1ccc(-c2ccc(F)cc2)s1	–	Japanese type 2 diabetes patients	200 mg, day 2, 24 h urine collection	reference: baseline	urinary potassium excretion change	-3.92 mEq
O=C(O)CCC(=O)O.[2H]C([2H])([2H])Oc1cc(C)c2[nH]ccc2c1CN1CC[C@@H](C2CC2)C[C@H]1c1ccc(C(=O)O)cc1	multiple ascending dose	healthy Chinese subjects	100 mg twice daily	–	subjects with dental ulcer TEAE	12.5%
COc1ccc2c(c1)CN(C(=O)CCN1CCC(Cc3ccccc3)CC1)CC[S@@+]2[O-]	telemetry	conscious male beagle dogs	intravenous, 8 mg/kg, 24 h	–	QT interval	213 ± 28 ms
O=C(CC1OCCN(Cc2ccccc2)C1=O)Nc1ccc2c(c1)OCCO2 (stereo not drawn)	–	aqueous buffer	pH 7.4	–	thermodynamic solubility	119 µM (≈ 45.5 µg/mL)
CNC(=O)c1ccc(-c2cnc3ncc(Cc4ccc5ncccc5c4)n3n2)cc1F	phase 1 clinical trial, refers to: blood bilirubin increased	gastric cancer expansion cohort	oral, 600 mg twice daily, grade 3 or 4	–	adverse event incidence	11%
Cc1ccc(Sc2ccccc2N2CCNCC2)c(C)c1	refers to: protein in urine	healthy adult women	oral, 10 mg daily, 12 days	–	participants with TEAE	0%
COc1cc2c3c(n(CCCN4CCOCC4)c(=O)c2cc1OC)-c1cc2c(cc1C3=O)OCO2	–	beagle dog, female, plasma	oral, 1720 mg/m^2, gelatin capsule	–	Vz/F	9200 L/m² and 19900 L/m²
Cc1ccc(O)c(-n2nc3ccccc3n2)c1	–	human aged 6-11 years	concentration not given, sunscreen, 95th percentile	–	daily dermal exposure dose	4720 ng/kg/day
CNCc1ccc(-c2[nH]c3cc(F)cc4c3c2CCNC4=O)cc1	–	human patients	oral, 600 mg twice daily, grade 1	–	nausea incidence	30.8%
COc1c(C)c2c(c(O[C@@H]3O[C@H](C(=O)O)[C@@H](O)[C@H](O)[C@H]3O)c1C/C=C(\C)CCC(=O)O)C(=O)OC2	–	healthy subjects, plasma	oral, 1 g mycophenolate mofetil	–	half-life, mean	13.3 h
CCCCc1ccc(-c2ccc(C#N)cc2)cc1	–	Sprague-Dawley rat, female, fetus	5000 ng/mL in perfusate, 50 (unit not given), high dose, mixture of 21 LCMs	–	median fetal accumulation	1.19 ng/g
Cc1ccc(C(=O)N(CCCN)C(c2nc3snc(C)c3c(=O)n2Cc2ccccc2)C(C)C)cc1 (stereo not drawn)	–	human patients	intravenous, 2 mg/day	–	grade ≥3 fatigue patients	17%
C[C@@H](c1ccc2nccn2c1)n1nnc2ncc(-c3cnn(C)c3)nc21	refers to: any AE	EGFR-mutant MET-altered NSCLC patients	oral, dose not given, AE grade ≥3, all	–	incidence of treatment-related AEs	28%
CC(C)n1c(Nc2cccnc2)nc2cnc(Nc3ccc(N4CCN(C)CC4)cc3)nc21	refers to: gamma-glutamyltransferase increased	healthy human, male	oral, dose not given, CTCAE grade 1-3	–	subjects with TEAE	2.4%
OC[C@H]1O[C@@H](c2ccc(F)c(Cc3cc4ccccc4s3)c2)[C@H](O)[C@@H](O)[C@@H]1O	–	Japanese patients, type 1 diabetes	oral, 100 mg/day, onset day 10	reference: patients	hypoglycaemia-related adverse event	3%
C[C@@H](Oc1ccc(S(C)(=O)=O)cc1C(=O)N1C[C@@H]2C[C@]2(c2cc(C(F)(F)F)on2)C1)C(F)(F)F	–	human	oral, 25 mg	–	subjects with discoloured faeces	16.7%
Cn1cc(-c2cn3nccc3c(-c3cnn([C@]4(CC#N)C[C@@H](C#N)C4)c3)n2)cn1	–	healthy human, plasma	100 mg once daily, day 10, multiple dose, fed, geometric mean	–	MRT	9.9 h
CCN1CCN(Cc2ccc(NC(=O)c3ccc(C)c(NC(=O)c4cncc(-c5cccs5)c4)c3)cc2C(F)(F)F)CC1	–	C57BL/6 mice, epithelial lining fluid	intraperitoneal, 10 mg/kg	–	extrapolated AUC share	7.83%
[18F]c1ccc(-c2ccc3c(c2)[nH]c2ccncc23)cn1	microPET/CT imaging	APP/PS1 mouse, AD model, heart	intravenous, 5 min	–	SUV	1.33 ± 0.448
C[C@@]1(c2cc(NC(=O)c3ccc(C#N)cn3)ccc2F)C=CSC(N)=N1	–	elderly humans, both sexes, plasma	oral, 90 mg single dose	–	dose-normalised AUC(0-last)	97.8 ng·h/mL

A few entries again:
SMILES	test	system	conditions	scale	quantity	result
Cc1ccc(Sc2ccccc2N2CCNCC2)c(C)c1	refers to: protein in urine	healthy adult women	oral, 10 mg daily, 12 days	–	participants with TEAE	0%
COc1cc2c3c(n(CCCN4CCOCC4)c(=O)c2cc1OC)-c1cc2c(cc1C3=O)OCO2	–	beagle dog, female, plasma	oral, 1720 mg/m^2, gelatin capsule	–	Vz/F	9200 L/m² and 19900 L/m²
